Published values pooled from the literature.
Compare with care: the assays were run in different laboratories.
Cell line: HUVEC

With `COc1cc2c(cc1-c1coc3c(CC=C(C)C)c(OC)c(OC)cc3c1=O)OCO2` the IC50 was over 50 µM (cell growth or viability, MTT; 72 h).
`COc1ccc(Cn2cc(COc3c(OC)ccc4cc5[n+](cc34)CCc3cc4c(cc3-5)OCO4)nn2)cc1` gave an IC50 of 71.2 µM (cell growth or viability, MTT).
With `[NH2][Pt]1([NH2])([Cl])([O]C(=O)C(F)(F)F)[O]C(=O)C2(CC(=O)C2)C(=O)[O]1` the IC50 was over 200 µM (cell growth or viability, MTT).
With `COC(=O)CNc1cc(CS(=O)(=O)c2ccc3ccccc3c2)ccc1OC` the IC50 was 1.22 µM (cell growth or viability, MTS; 48 h).
With `COc1ccc(CC[C@H]2OC(=O)[C@@H]3CCCCN3C(=O)C(=O)C(C)(C)COC(=O)C=CCCN(C)C(=O)[C@H](Cc3ccccc3)NC(=O)[C@@H](Cc3ccccc3)N(C)C(=O)[C@@H]3CCCN3C(=O)[C@H](CC(C)C)N(C)C(=O)CCC(=O)Nc3cccc2c3)cc1OC` the IC50 was 0.426 µM (thymidine uptake).
`COc1ccc(CS(=O)(=O)c2ccc3ccccc3c2)cc1NCC(=O)O` has an IC50 of 3.81 µM (cell growth or viability, MTS; 48 h).
With `COc1ccc2cc3[n+](cc2c1OCc1cn(Cc2ccc(S(C)(=O)=O)cc2)nn1)CCc1cc2c(cc1-3)OCO2` the IC50 was 74.6 µM (cell growth or viability, MTT).
For `COc1ccc2c(c1)OCc1c-2oc2cc3c(cc12)OCO3`, the IC50 was over 50 µM (cell growth or viability, MTT; 72 h).
`CC12CCC3c4ccc(OCCCOc5no[n+]([O-])c5S(=O)(=O)c5ccccc5)cc4CCC3C1CCC2O` (centres unmarked) has an IC50 of 0.418 µM (cell growth or viability, MTT; 48 h).
`COc1cc(/C=C/C(=O)NCCCCCCNC2=C3C[C@@H](C)C[C@H](OC)[C@H](O)[C@@H](C)/C=C(\C)[C@H](OC(N)=O)[C@@H](OC)/C=C\C=C(/C)C(=O)NC(=CC2=O)C3=O)ccc1O` gave an IC50 of 1.58 µM (cell growth or viability, MTT; 72 h).
For `COc1ccc2cc3[n+](cc2c1OCc1cn(Cc2ccccc2Br)nn1)CCc1cc2c(cc1-3)OCO2`, the IC50 was 13.9 µM (cell growth or viability, MTT).
`COc1ccc(CN2C(=O)C(=O)c3cc(NC(C)=O)ccc32)cc1` gave an IC50 of 8.22 µM (cell growth or viability, MTT; 48 h).
The IC50 of `Oc1ccc2c(c1)OCc1c-2oc2cc3c(cc12)OCO3` is reported as over 50 µM (cell growth or viability, MTT; 72 h).
The IC50 of `COc1ccc2cc3[n+](cc2c1OCc1cn(Cc2ccc(C(C)(C)C)cc2)nn1)CCc1cc2c(cc1-3)OCO2` is reported as 25.5 µM (cell growth or viability, MTT).
For `CC(=O)Nc1ccc(OC(=O)CCC(=O)[O][Pt-2]23([O]C(=O)CCC(=O)Oc4ccc(NC(C)=O)cc4)([NH2+][C@@H]4CCCC[C@H]4[NH2+]2)[O]C(=O)C(=O)[O]3)cc1`, the IC50 was over 100 µM (cell growth or viability, MTT; 48 h).
For `CC12CCC3c4ccc(OCCCOc5no[n+]([O-])c5S(=O)(=O)c5ccccc5)c(Br)c4CCC3C1CCC2O` (centres unmarked), the IC50 was 0.056 µM (cell growth or viability, MTT; 48 h).
With `COc1ccc2cc3[n+](cc2c1OCc1cn(Cc2ccccc2)nn1)CCc1cc2c(cc1-3)OCO2` the IC50 was 71.9 µM (cell growth or viability, MTT).
